Results of several laboratories.
Protocols differ between the studies behind these lines.
GZF1: GZF1 250-711 (Homo sapiens, UniProt Q9H116)
HRS1: HRS1 1-344 (Arabidopsis thaliana, UniProt Q9FX67)
CHES-1-like: CHES-1-like 700-785 (Drosophila melanogaster, UniProt Q9W3Q5)
RC3H1: RC3H1 89-407 (Homo sapiens, UniProt Q5TC82)
T1: loqs Loqs-PD, 1-359 (Drosophila melanogaster); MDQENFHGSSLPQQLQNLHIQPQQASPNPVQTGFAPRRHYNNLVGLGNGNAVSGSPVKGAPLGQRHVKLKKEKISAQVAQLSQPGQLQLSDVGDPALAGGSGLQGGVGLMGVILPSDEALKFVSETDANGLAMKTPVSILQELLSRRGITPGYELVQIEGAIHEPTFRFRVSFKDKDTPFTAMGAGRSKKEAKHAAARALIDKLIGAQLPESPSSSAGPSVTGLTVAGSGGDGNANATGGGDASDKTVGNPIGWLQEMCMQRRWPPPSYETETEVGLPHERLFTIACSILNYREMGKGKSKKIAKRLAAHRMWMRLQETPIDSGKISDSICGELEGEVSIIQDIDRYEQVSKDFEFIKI

Under binding, `CACGCUCAUGCACACACCCACA (ssRNA)` is recorded as “no binding” (HNRNPL 102-176 (Homo sapiens, UniProt P14866); EMSA; RNA).
`GATCTCTGCGTGCGCGTCTATAGCCTACTG (dsDNA)` — result for binding: “binds” (GZF1; EMSA; double-stranded DNA, one strand shown; supershift with anti-GST).
`AGGGGATAATGAAGAGAGAGAGAGAGAGAGTG (dsDNA)`: binding “binds” (HRS1; EMSA; double-stranded DNA, one strand shown).
`CGCCTGGCGCCAGAGA (dsDNA)`: binding “binds” (SMAD3 1-145 (Homo sapiens, UniProt P84022); EMSA; double-stranded DNA, one strand shown).
Under binding, `GATCTCTGCGTGCGCATCTATAGCCTACTG (dsDNA)` is recorded as “binds” (GZF1; competition; double-stranded DNA, one strand shown).
For `AAGAAAATTGAGAGAGAGAGAAATTAGCTAGA (dsDNA)`, binding read “binds” (HRS1; EMSA; double-stranded DNA, one strand shown).
`DNA 1 ATGTAGACTATAGTCGACA / DNA 2 TTGTCGACTATAGTCTACA (dsDNA; 1 nt 5' overhang)`: binding “binds” (Regulatory protein 1-79 (Enterobacter sp., UniProt Q8GGH0); X-ray crystallography; double-stranded DNA).
For `TTAAGTTTCGGCATATCTTG (dsDNA)`, binding read “no binding” (OsWRKY53 full length assumed (Oryza sativa, UniProt A7BEY7); EMSA; double-stranded DNA, one strand shown).
`TTAATGTTGTTTTGTTTCCGCCA (dsDNA)` — result for binding: “binds” (CHES-1-like; EMSA; double-stranded DNA, one strand shown; not purified).
Under binding, `GUGUUGGUUUGCCAACAU (structured RNA)` is recorded as “binds” (HNRNPL full length assumed (Homo sapiens, UniProt P14866); fluorescence quenching; folded RNA).
Under binding, `TTCCGGGTTGTTTATTCAGATT (dsDNA)` is recorded as “binds” (CHES-1-like; EMSA; double-stranded DNA, one strand shown; not purified).
`RNA 1 AUGUUUUCGC / RNA 2 GCGAAAACGG (dsRNA; duplex of two strands)` — result for binding: “binds” (RC3H1; EMSA; double-stranded RNA).
`GGAGTATCCGAACCCAAACCGAAAAGTGAATT (dsDNA)`: binding “binds” (HRS1; EMSA; double-stranded DNA, one strand shown).
For `CAACGCCCTGTCGGTGAGAAACCGTTTGCA (DNA; hairpin)`, binding read “binds” (CDCA7 235-371 (Homo sapiens, UniProt Q9BWT1); EMSA; folded DNA).
Under binding, `AGGGGGCCGUGGGGUGGGAGCUGGGG (G-quadruplex RNA; G4)` is recorded as “binds” (GAR1 (Homo sapiens, UniProt Q9NY12); EMSA; folded RNA; 100 nM).
For `TATTTGGAATGCGCCGCTACGAACCCGGCT (dsDNA)`, binding read “no binding” (GZF1; competition; double-stranded DNA, one strand shown).
`GGGAACAGCCCAAUCAUCUAUCACGAAUCGGGGCUAUGCGUGAAAACAGAAGUUCACAGCAUAGCUCCUUUUUGUAUGGGCGCUUUACC (structured RNA)` — result for binding: “no binding” (hutP full length assumed V51I (Bacillus subtilis, UniProt P10943); filter binding; folded RNA; added: L-His, Mg2+).
`GATCTCTGCGCATGCGTCTATAGCCTACTG (dsDNA)` — result for binding: “no binding” (GZF1; competition; double-stranded DNA, one strand shown).
`GGGUAAUGCCCCUCCCCUCUCACACCUCCGGGAUCAGUGACCGGAGGGCGGUCGGGGAGGGGACACCU (structured RNA (Pyrococcus abyssi); hairpin, internal loop, K-turn)`: binding “no binding” (nop10 full length assumed (Pyrococcus abyssi, UniProt Q9V0E3); EMSA; folded RNA).
Under binding, `TATTTGGAATGCGCCATTATAAACCCGGCT (dsDNA)` is recorded as “no binding” (GZF1; competition; double-stranded DNA, one strand shown).
Under binding, `TTAATGGTTTGTTGTTGTCGCCA (dsDNA)` is recorded as “binds” (CHES-1-like; EMSA; double-stranded DNA, one strand shown; not purified).
`TATTTGGAACATGCCGCTATAAACCCGGCT (dsDNA)` — result for binding: “no binding” (GZF1; competition; double-stranded DNA, one strand shown).
For `RNA 1 UAAUACUGUCAGGUAAAGAUGUC / RNA 2 CAUCUUUACCUGACAGUAUUAGA (dsRNA)`, binding read “binds” (T1, loqs Loqs-PD, 1-359 (Drosophila melanogaster); fluorescence anisotropy; double-stranded RNA).
For `GATCTCTGCGTGCGCTTCTATAGCCTACTG (dsDNA)`, binding read “binds” (GZF1; competition; double-stranded DNA, one strand shown).
`ACAUGUUUUCUGUGAAAACGGAG (structured RNA; hairpin, 3-nt loop)` — result for binding: “binds” (RC3H1; gel filtration; folded RNA).

For quick reference, copied from above:
For `TTAAGTTTCGGCATATCTTG (dsDNA)`, binding read “no binding” (OsWRKY53 full length assumed (Oryza sativa, UniProt A7BEY7); EMSA; double-stranded DNA, one strand shown).
For `RNA 1 UAAUACUGUCAGGUAAAGAUGUC / RNA 2 CAUCUUUACCUGACAGUAUUAGA (dsRNA)`, binding read “binds” (T1, loqs Loqs-PD, 1-359 (Drosophila melanogaster); fluorescence anisotropy; double-stranded RNA).
`CGCCTGGCGCCAGAGA (dsDNA)`: binding “binds” (SMAD3 1-145 (Homo sapiens, UniProt P84022); EMSA; double-stranded DNA, one strand shown).
